Experimental data collected from several papers.
Every numbered part comes from another study and shows a few of its results, in no order.

Set 1
Target: Histone acetyltransferase KAT6A, winged helix 2, GST fusion (KAT6A, Homo sapiens, UniProt Q92794, residues 85-181)
Technique: protein binding microarray
Molecule type: double-stranded DNA, one strand shown
Matrix: in vitro
Tested at: not given
Setting: 8-mer, flanks averaged, mean of 2 arrays, mostly near background
Baseline: not given
Reading: higher = stronger binding
Target sequence (chain): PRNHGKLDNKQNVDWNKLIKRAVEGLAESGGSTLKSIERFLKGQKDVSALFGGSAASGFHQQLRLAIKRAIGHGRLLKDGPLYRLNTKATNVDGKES
| Strand | E-score |
| --- | --- |
| GACACCGA | 0.11 |
| AAGTATCC | -0.0764 |
| GGGCGGCA | 0.204 |
| ATGCCTGG | -0.0734 |
| TACCCCTA | -0.242 |
| GGCACGCC | -0.0145 |

Set 2
Target: Prothrombin, mature alpha-thrombin (F2, Homo sapiens, UniProt P00734)
Technique: aptamer microarray, sandwich
Molecule type: DNA with 2'F-ANA
Matrix: in vitro
Tested at: 200 nM
Setting: whole 15-mer aptamer, many near background
With: Cy3 exosite-II aptamer, 400 nM
Reading: higher = stronger binding
Strand: GGTTGGTGTGGTTGG
| Modification | mean fluorescence intensity |
| --- | --- |
| 2'F-ANA at 4 6 7 9 12 13 | 293 a.u. |
| 2'F-ANA at 1 2 3 5 7 8 10 14 15 | 51.3 a.u. |
| 2'F-ANA at 1 3 4 8 9 13 14 | 68.6 a.u. |
| 2'F-ANA at 3 5 9 11 14 | 90.5 a.u. |
| 2'F-ANA at 1 2 4 6 7 8 12 14 15 | 65.3 a.u. |
| 2'F-ANA at 2 4 6 8 9 11 13 15 | 151 a.u. |

Set 3
Target: Interferon regulatory factor 3, full length, phosphomimetic (IRF3, Homo sapiens, UniProt Q14653, residues 1-427, S386D/S396D/S398D/S402D/T404D/S405D)
Technique: protein-binding microarray
Molecule type: double-stranded DNA, one strand shown
Matrix: in vitro
Tested at: 2540 nM top
Setting: 60-bp whole probe
With: salmon DNA 0.4 mg/ml
Baseline: random background probes
Reading: higher = stronger binding
All sequences stand within: GCCTAGCAC … GTCTTGATTCGCTTGACGCTGCTG
Construct (chain): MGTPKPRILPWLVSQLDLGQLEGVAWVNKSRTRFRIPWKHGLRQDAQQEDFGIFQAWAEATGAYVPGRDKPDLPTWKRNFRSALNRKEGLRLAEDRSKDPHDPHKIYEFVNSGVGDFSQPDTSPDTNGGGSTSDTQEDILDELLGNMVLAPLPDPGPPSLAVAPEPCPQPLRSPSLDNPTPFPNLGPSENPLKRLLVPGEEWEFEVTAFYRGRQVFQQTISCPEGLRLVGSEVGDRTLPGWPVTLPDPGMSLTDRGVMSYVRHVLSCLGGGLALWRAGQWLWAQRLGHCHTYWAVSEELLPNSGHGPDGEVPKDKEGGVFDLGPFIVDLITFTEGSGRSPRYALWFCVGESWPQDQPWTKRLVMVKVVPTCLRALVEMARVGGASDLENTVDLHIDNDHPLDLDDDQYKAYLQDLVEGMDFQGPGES
| Strand | fitted relative affinity |
| --- | --- |
| TTAGATATAAGACTGGATTAGTGCTAG | -0.436 z-score |
| TCATTTCTCATTCGTCATACTGTGCTA | 2.77 z-score |
| GGATTGCAACCCCTCAAAAAGTGCTAG | 0.455 z-score |
| GACGATCTCAGTGTCGAGACGTGCTAG | 0.369 z-score |
| CCTTGTACGTCGTTTCCCAAGGTGCTA | 1.74 z-score |
| TTAAGTCTCCTTCTCCTTTAGTGCTAG | 5.39 z-score |

Further values, each from its own experiment
| Molecule | target | assay | test system | conditions | how to read | endpoint | result |
| --- | --- | --- | --- | --- | --- | --- | --- |
| PhoQ, residues 284 288 289 292 302 303 SSYNSA | PhoP, residues 12 14 15 18 19 LHSVW (Escherichia coli, UniProt P23836) | Sort-seq, refers to: YFP reporter | E. coli | PhoQ-PhoP variant library, with: 10 µM Mg2+ | baseline: high Mg2+ state, higher = stronger signaling | fold induction | 12.3 |

Repeated from above (set 3):
| Strand | fitted relative affinity |
| --- | --- |
| GACGATCTCAGTGTCGAGACGTGCTAG | 0.369 z-score |
| TCATTTCTCATTCGTCATACTGTGCTA | 2.77 z-score |
